Results gathered from unrelated publications.
Numbered parts are unrelated; each lists some results of a single study.

Set 1 — method: protein-binding microarray; form: double-stranded DNA, one strand shown; sample: in vitro; tested at: 940 nM top; notes: 60-bp whole probe; with: salmon DNA 0.4 mg/ml; reference: random background probes; reading: higher = stronger binding; all sequences stand within: GCCTAGCAC … GTCTTGATTCGCTTGACGCTGCTG
Target: Interferon regulatory factor 5, full length, phosphomimetic (IRF5, Homo sapiens, UniProt Q13568-2, residues 1-514, S451D/S453D/S456D/S462D)
Sequence | fitted relative affinity [z-score]
TCACGGCTCGTTATCCTACTGTGCTAG | 0.00365
GACGAACTGACTTTCGAGACGTGCTAG | 0.909
GACGGTATCGGCATCGGGACGTGCTAG | 3.76
TCATTAATAAGGTTTCCAACTGTGCTA | 0.098
GACGGTATCGGTTTCGGGATGTGCTAG | 9.23
GACGGTCTCCTACCGCTGACGTGCTAG | -0.188
TTAGCTATCCTTTTCCTTTAGTGCTAG | 0.858
TTAGGACTGCGGACTGGGTTAGTGCTA | -0.277
TTATAACTGAGTTTCGATTAGTGCTAG | 8.07
GACGGTATCGGGTAACGGGACGTGCTA | 5.88
AGCTTTCCCAACATCAGAGCGTGCTAG | 0.39
GACGGTATCGGTATCGGGAAGTGCTAG | 8.83
TTAGCTCTCAGACTGGATTAGTGCTAG | 0.202
TTAGCTTTCGGACTGGGTTAGTGCTAG | 2.16
TTAGATCTCAGACTGCATTAGTGCTAG | -0.338
GAGTTTCTATTTTCTGAATGGTGCTAG | 6.44
GAGGAACTGGGGACTGGAGACGTGCTA | -0.039
TTAAATCTCAGTCTCGATTAGTGCTAG | 3.66
GACGGTATCGGGACCGGGGACGTGCTA | 3.38
CTCTTTCTCTGCTACCCTCTGGTGCTA | 2.39
GACGGTATCGGACTGGGGATGTGCTAG | 2.37
AGTGCTATACCACTCTTGCTGTGCTAG | 0.265
TTAGATCTCACTCTCGATTAGTGCTAG | 3.72
TTAGGTCTCCTACTGCTTTAGTGCTAG | -0.151
GACGATATCAGTATAGAGACGTGCTAG | 0.0852

Set 2 — method: RNA Bind-n-Seq; form: RNA; sample: in vitro; tested at: 365 nM; reference: no-protein control; reading: higher = stronger binding
Target: RNA binding protein fox-1 homolog 2, RRM domain, GST-SBP tag (RBFOX2, Homo sapiens, UniProt O43251-10, residues 100-194)
Notes: natural RNA segment, single round, ends assumed
All sequences stand within: GGGAGUUCUACAGUCCGACGAUC … UGGAAUUCUCGGGUGCCAA
Construct (chain): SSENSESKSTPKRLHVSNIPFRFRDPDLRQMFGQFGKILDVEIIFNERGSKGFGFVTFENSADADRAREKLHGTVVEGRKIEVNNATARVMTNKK
Sequence | RBNS enrichment (R)
CAGGUACCCGUGGCUGAGCUGAGCUUCCUCUGCUUUCCCUAGGCCUGGCCUCUGCAGGGAACUGCAGCACACACUGCACUCCCACCUGCUCUUGCCGCCAGCAUUGCACC | 0.435
UCAAGAGCAGUGCUUCUCCAUUUGUUUUGCAGAGAAAUGUUUUUCAUUUCCCGUGUGUUUCCAUUUCCUUCUGAAAUUCUGAUUUUAUCCAUUUUUUUAAGGCUCCUCUU | 0.956
UAAACCUUUCUGUAUUUGAGAGAGAUGCAAACUUCUAGAGUAAAAGUUGAAUAAAAAGUCACAGAGGAUGUAAAUUUUGUACAGGACUAGAAUGUAAAUGAAGCUUGCUU | 1.6
UCCCUCUUUAGGGACUGUCUGUCCAGUGACAGAUUAGCCAUAGAGUCAUGACACUUAGUAAGUUUGCUUCCUUUCUCUGUCAUUUGAUCCUAAGGUAACAUAUGUCUCAC | 0.208
CCAAAGAAGGCAAAAAGAUAAGAUUUACUCAAGUAGCAUUUGGGCAAUGAGGAAGGAAAGGUUUCAAAUUUAGGGGCAGAAGUGAGAGAAUGAGCCAACCCAUGUACCUG | 1.14
CAGCCAGGUGGCCUCACCUGCUGCCCAGAAUUAGGCUGUGCCUUUUCCCAGUCCUUCCCCAUGCCAGAGCCUCUCCCCAUCUUUCCCCGCGCCAGAGCCUCACAGCCACA | 0.411
AAAUCUCUGAGGUAUCAAAGAAUUUCUCCAUGAAGCCAGAUAAGUAUUCAAGAAUGCAUGGACCAGUAUAGGUUCGCUCUUGUUUCUACACCUCCAGAAUGAUAGCUGAC | 0.661
UGGUCCUAAAACAUAAAAUCUGAUGGACAAACAGAGGGUUGCUGGGGGGACAAGCGUGGGCACAAUUUCCCCACCAAGACACCCUGAUCUUCAGGCGGGUCUCAGGAGCU | 0.358
GAUAUACUUGUAUUUAUACCUCAGAUAUUCUUUUGGGUUUUGUACCUCAAGGCUUUUUUCUUCUUAUUGUAAAUACACUUUACGUGAAUACAGUCUAAGUGAAGAAAAUA | 0.531
GCAGUGUCUAAACCCCCGGAGCCAUCUUGCUGCCGACACCCUGCUUUCCCCUCGCCCUAGGGCUCCCUUGCCGCCCUCCUGCAGUAUUUAUGGCCUCGUCCUCCCCACCU | 0.651
AGAUCCCGUCACUAUCUGGCAAAUGCACCAUGCGGCCAGGCUGCAGGGGCUCUGGGCAUGCUGUGCCUGAGCUCCCUCAAAUGCCCAACCUAAGGCUUUGUGGGUAAGAU | 0.354
AGAAAGAGUAGAUGGGCCCAAGCACAGCCUCCUCAUGCGUGAAAUAAUGCCAAAUGCUCUUUAGUAAAAUGCUGAAUUACGGUGUUUUUUUUUUUUUUGCAUCAUUUGUC | 0.597

Set 3 — method: RNA Bind-n-Seq; form: RNA; sample: in vitro; tested at: 200 nM; notes: whole 134-nt RNA, ends assumed; with: 150 mM KCl; reference: input library; reading: higher = stronger binding
Target: Fragile X messenger ribonucleoprotein 1, C-terminal low-complexity region (Fmr1, Mus musculus, UniProt P35922)
All sequences stand within: GGGAGUUCUACAGUCCGACGAUC … UGGAAUUCUCGGGUGUCAAGG
Sequence | log2 enrichment
GAAAUACCAUCGGAAGACGAUGGGACGGUGCUGCUCUCCACGGUUACAGCCCAGUUUCCAGGGGCGUGUGGGCUUCGCUACAGGAAUCCA | -0.957
UGGCCCUGGUGGCAUGCGGGGAGGAAGAGGUGGCCUCAUGGAUCGUGGUGGUCCCGGUGGAAUUUUCAGAGGUGGCCGUGGUGGAGACAG | 0.185
AGUCCUGUGCUACACAUCGUAUGUACCGAAUCAAACCCCCCCAAAUUUAAACCCAAAAAAGUAUUAUGUUACGCCGUUCGGAUCUGCACU | -0.0612
AGUCCUGUGCUACACAUCGUAUGUACCGAAUCAAACCCAAAUUUUUAAAUUUUUAAAAAAGUAUUAUGUUACGCCGUUCGGAUCUGCACU | 0.13
GUCCUGUGCUACACAUCGUAUGUACCGAAUCGGUUUUUUUGGAAAAAAAGGUUUUUGGAAAGUAUUAUGUUACGCCGUUCGGAUCUGCAC | -1.2
CAAGUCCUGUGCUACACAUCGUAUGUACCGAAUCGGGAGGGAAAGGGAAAAAGGGAAAGUAUUAUGUUACGCCGUUCGGAUCUGCACUUC | 0.582
UUUCAGGGGAGCUCUUUGCUCAGGCCCCGGUGGAUCAGUUUCCUGGCACAGCUGUGGAGAGUGUGACGGAUUCCAGCAGGUACUUCGUGA | -1.32
CUGUGCUACACAUCGUAUGUACCGAAUCGGGGUUUUUGGGGAAAAAAAGGGGAAAAAGGGGAAAGUAUUAUGUUACGCCGUUCGGAUCUG | -0.263
UGGGAGGUGGAUUUUGUUUAUUUUUUUAGCUCAUUUCCAGGGGUGGGAAUUUUUUUUUAAUAUGUCUCAUGAAUAAAGUUGUUUUUGAAA | 0.213
CUGUGCUACACAUCGUAUGUACCGAAUCGGGCCCCCCCGGCCCCCCCGGGGCCCCCCCGGGGAAAGUAUUAUGUUACGCCGUUCGGAUCU | -1.16

Set 4 — target: UBE2V2 UBC core domain (UniProt Q15819); method: yeast two-hybrid; sample: yeast; notes: mostly zero background; reference: not given; reading: higher = stronger interaction
B1: PHF7 RING domain (UniProt Q9BWX1); chain IQHGHVGEESCILCCEDLSQQSVENIQSPCCSQAIYHRKCIQKYAHTSAKHFFKCPQCNNRKEFPQEML
B2: RNF32 RING domain (UniProt Q9H0A6); chain SLLQGDSVQPCPICKEEFELRPQVLLSCSHVFHKACLQAFEKFTNKKTCPLCRKNQYQTRVIH
B3: TRIM38 RING domain (UniProt O00635); chain STKKMMEEATCSICLSLMTNPVSINCGHSYCHLCITDFFKNPSQKQLRQETFCCPQCRAPFHMDSLRP
B4: TRIM52 RING domain (UniProt Q96A61); chain PMQTLQEEAVCAICLDYFKDPVSISCGHNFCRGCVTQLWSKEDEEDQNEEEDEWEEEEDEEAV
B5: RNF43 RING domain (UniProt Q68DV7); chain SGSSCSSAPVCAICLEEFSEGQELRVISCLHEFHRNCVDPWLHQHRTCPLCMFNITEGDSFS
B6: TRIM3 RING domain (UniProt O75382); chain VQPMDKQFLVCSICLDRYQCPKVLPCLHTFCERCLQNYIPAQSLTLSCPVCRQTSILPEQGV
B7: RNF4 RING domain (UniProt P78317); chain TGLRPSGTVSCPICMDGYSEIVQNGRLIVSTECGHVFCSQCLRDSLKNANTCPTCRKKINHKRYHP
B8: ANKIB1 RING domain (UniProt Q9P2G1); chain LSPGDLDTSLCDICMCSISVFEDPVDMPCGHDFCRGCWESFLNLKIQEGEAHNIFCPAYDCFQLVPVDIIE
B9: RFPL2 RING domain (UniProt O75678); chain MAALFQEASSCPVCSDYLEKPMSLECGCAVCLKCINSLQKEPHGEDLLCCCSSMVSRKNKIRR
B10: RNF14 RING domain (UniProt Q9UBS8); chain IKCFNSKLFLCSICFCEKLGSECMYFLECRHVYCKACLKDYFEIQIRDGQVQCLNCPEPKCPSVATPGQVK
B11: UBE4A RING domain (UniProt Q14139); chain LQQQEEETYADACDEFLDPIMSTLMCDPVVLPSSRVTVDRSTIARHLLSDQTDPFNRSPLTMDQIRPNTELKEKIQRWLAERKQQKEQLE
B12: NSMCE1 RING domain (UniProt Q8WV22); chain RETYPDAVKICNICHSLLIQGQSCETCGIRMHLPCVAKYFQSNAEPRCPHCNDYWPHEIPKV
B13: RNF5 RING domain (UniProt Q99942); chain ERGGAGATFECNICLETAREAVVSVCGHLYCWPCLHQWLETRPERQECPVCKAGISREKVVP
Residues (chain): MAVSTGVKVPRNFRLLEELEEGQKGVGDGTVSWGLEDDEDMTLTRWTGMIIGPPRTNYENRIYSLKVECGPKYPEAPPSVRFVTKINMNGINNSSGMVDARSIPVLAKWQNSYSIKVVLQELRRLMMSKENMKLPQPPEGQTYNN
Molecule | lacZ reporter activity
B1 (PHF7 RING domain) | 0
B2 (RNF32 RING domain) | 0
B3 (TRIM38 RING domain) | 0
B4 (TRIM52 RING domain) | 0
B5 (RNF43 RING domain) | 0
MANWVFCNRCFQPPHRTSCFSLTNCGHVYCDACLGKGKKNECLICKAPCRTVLLSK (RNF212 RING domain (UniProt Q495C1)) | 0
B6 (TRIM3 RING domain) | 0
B7 (RNF4 RING domain) | 0
B8 (ANKIB1 RING domain) | 0
B9 (RFPL2 RING domain) | 0
B10 (RNF14 RING domain) | 0
B11 (UBE4A RING domain) | 0
B12 (NSMCE1 RING domain) | 0
B13 (RNF5 RING domain) | 0
ISNDSETLEECMVCSDMKRDTLFGPCGHIATCSLCSPRVKKCLICKEQVQSRTKIE (MIB1 RING domain (UniProt Q86YT6)) | 0

A few entries again (set 1):
Sequence | fitted relative affinity [z-score]
GACGGTATCGGACTGGGGATGTGCTAG | 2.37
GACGAACTGACTTTCGAGACGTGCTAG | 0.909
TTAGATCTCACTCTCGATTAGTGCTAG | 3.72
TTAGCTATCCTTTTCCTTTAGTGCTAG | 0.858
GACGGTATCGGGTAACGGGACGTGCTA | 5.88
AGCTTTCCCAACATCAGAGCGTGCTAG | 0.39
